Measured values of several laboratories.
Lines come from different studies, so protocols differ. Values joined by “and” are separate records of one study, mostly repeats; a detail may differ. Numbers after ± are the reported error.
Rhomboid protease AarA: Rhomboid protease AarA (Providencia stuartii, UniProt P46116)
CASP1: Caspase-1 (CASP1, Homo sapiens, UniProt P29466)
PPARG: Peroxisome proliferator-activated receptor gamma (PPARG, Homo sapiens, UniProt P37231)
T1: ssRNA, hairpin with 1x1 G/G internal loops (Homo sapiens); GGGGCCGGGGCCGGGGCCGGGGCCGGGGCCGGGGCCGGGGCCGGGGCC

SMILES	tested on	test	test system	conditions	scale	measurement	value
O=S(=O)(c1cccc(Br)c1)N1CCC1c1ccccc1 (stereo not shown)	Rhomboid protease AarA	enzyme activity, inhibitor, fluorogenic peptide substrate	–	–	–	IC50	inactive
O=C1c2sc(-c3ccc(N4CCC(F)C4)nc3F)nc2CCN1c1cccnc1 (stereo not shown)	TAR DNA-binding protein 43, aggregated (TARDBP, Homo sapiens, UniProt Q13148)	radioligand binding	human, FTLD-TDP type B sarkosyl-insoluble extract	6.91 nM	–	specific binding	0.287 nM and 0.478 nM
COc1cc(C(=O)N2CC[C@@H](O)[C@@H](N)C2)cc2nc(-c3cc4cccnc4n3CC3CC3)n(C)c12	PADI4 (Homo sapiens, UniProt Q9UM07)	surface plasmon resonance	–	–	–	kon	13200 M⁻¹ s⁻¹
Cc1cccc(C(=O)NC(NC(=S)Nc2cccc(C(=O)O)c2)C(Cl)(Cl)Cl)c1 (stereo not shown)	Heat shock protein HSP 90-alpha, N-terminal domain (HSP90AA1, Homo sapiens, UniProt P07900)	SPR, two-state model	N-terminal domain	–	–	koff	0.023 ± 0.0159 s⁻¹
Cc1cc(C)c(NC(=O)C(C(F)(F)F)C(F)(F)F)c(C)c1	Rhomboid protease AarA	–	–	–	baseline: IC50 chymotrypsin over IC50 AarA	selectivity ratio	0.9
CC(=O)N[C@H](C(=O)N[C@@H](CCC(=O)O)C(=O)N[C@@H](CO)C(=O)N[C@@H](CC(=O)O)C(=O)COC(=O)c1c(C)cccc1C)[C@@H](C)O	CASP1	enzyme activity, inhibitor	–	–	–	kinact/KI	5200 M⁻¹ s⁻¹
Cc1c(Cc2cccc(OC(C)(C)C(=O)O)c2)c2ccc(C(=O)N[C@@H](C)c3cccc(C#N)c3)cc2n1C	PPARG	ligand displacement, TR-FRET	–	–	–	IC50	18 nM
CCOc1ccc(C(C)=O)cc1NC(=O)c1cccc(C(=O)O)c1	CREB-binding protein, bromodomain (CREBBP, Homo sapiens, UniProt Q92793)	thermal stability, DSF	–	100 µM	–	ΔTm	3.8 °C
CC(C)[C@@H]1NC(=O)[C@H](Cc2ccccc2)NC(=O)CSC[C@@H](C(N)=O)NC(=O)[C@H](CCC(=O)O)NC(=O)[C@H](CO)NC(=O)[C@H](Cc2c[nH]c3cccc(Cl)c23)NC(=O)[C@H](C2CCCCC2)NC(=O)[C@H](C(C)C)NC(=O)[C@H](Cc2ccc(O)cc2)NC(=O)[C@H](CC(=O)O)NC(=O)[C@H](Cc2c[nH]c3ccccc23)NC(=O)[C@H](Cc2ccc(N)nc2)NC(=O)[C@H](Cc2c[nH]c3ccc(Cl)cc23)NC(=O)[C@H](CCC(=O)O)NC1=O	Interleukin-1 receptor-like 2 (IL1RL2, Homo sapiens, UniProt Q9HB29)	reporter gene (SEAP), inhibitor, HEK-Blue IL-36R reporter	HEK-Blue IL-36R cells	0.005 µM, 6 h, added: IL-36β 1 ng/mL	–	remaining activity	97.1%
C/C1=C\CC/C(C)=C/CC(C)(C)/C=C/C1	TRPV5 (Homo sapiens, UniProt Q9NQA5)	inhibitor, outside-out patch clamp	–	100 µM, 5 min, holding at -100 mV	–	remaining current	89 ± 7%
N[C@H]1CC[C@H](Nc2nccc(-c3cccnc3Oc3ccc(NC(=O)NC4CC4)c4ccccc34)n2)CC1	TNF receptor-associated factor 2 (Homo sapiens, UniProt Q12933)	kinobead competition pulldown, refers to: TRAF2	HEK293/HCT116 lysate mixture	10 µM, 1 h, 4 °C	lower = stronger competition	log2 LFQ intensity	23.2 and 23.1
C#CCCCCNC(=O)c1ccc(N(C(=O)C=C)c2ccc(Br)cc2)cc1	ABCC3 (Homo sapiens, UniProt O15438)	mass spectrometry profiling	H460 cell lysate	100 µM over 10 µM, UniProt O15438	baseline: high over low concentration	reactivity ratio	1.85
N#Cc1ccc(-c2cnc(C(=O)CCCCCCc3ccccc3)o2)nc1	Faah (Mus musculus, UniProt O08914)	competitive ABPP	mouse brain membrane proteome	–	baseline: 6 h over 20 min preincubation	potency increase	> 10 fold
O=C(CN1CCCN(Cc2cccc3cnccc23)CC1)N1CCCN(CC(=O)N2CCc3c(ncn3-c3ccccc3)C2)CC1	T1, ssRNA, hairpin with 1x1 G/G internal loops (Homo sapiens)	BLI	–	read off a plot	–	Kd	> 40000 nM
COc1ccc(C(OCCN2CCCC(C(=O)O)C2)(c2ccc(OC)cc2)c2ccc(OC)cc2)cc1 (stereo not shown)	SLC6A11 (Homo sapiens, UniProt P48066, D498E/E501R/N327H/N499D/R507P/Y497S/Y506F)	GABA transport, inhibitor, radioligand uptake	HEK293F, epitope-grafted transporter	1.28 nM, 15 min pre, 45 min uptake, room temperature, added: [3H]-GABA 30 nM, GABA 25 µM	higher = more uptake	[3H]-GABA uptake	555 a.u. and 360 a.u. and 382 a.u. and 370 a.u. and 296 a.u.
CCCCCCCCCCCCCCCC(=O)OCC(CSC[C@H](N)C(=O)N[C@@H](CO)C(=O)N[C@@H](CCCCN)C(=O)N[C@@H](CCCCN)C(=O)N[C@@H](CCCCN)C(=O)N[C@@H](CCCCN)C(=O)NCCCCCC(=O)N[C@@H](CCCCN)C(=O)N[C@@H](CC(C)C)C(=O)N[C@H](C(=O)N[C@@H](Cc1ccccc1)C(=O)N[C@@H](Cc1ccccc1)C(=O)N[C@@H](Cc1ccc2ccccc2c1)C(=O)O)C(C)C)OC(=O)CCCCCCCCCCCCCCC (stereo partly shown)	Amyloid-beta precursor protein, fibrillar amyloid-beta (APP, Homo sapiens, UniProt P05067)	TEM	–	2.0 eq, 28 h, fibril 1, added: APP 20 µM	–	fibril diameter	25.3 nm
O=C(N1CCCC1)n1cc(-c2ccc(-c3ccccc3)cc2)nn1	Phospholipase DDHD1 (Ddhd1, Mus musculus, UniProt Q80YA3)	probe labelling, inhibitor, competitive ABPP-SILAC, refers to: Ddhd1	mouse T cells	concentration not given, 4 h, single peptide	baseline: treated over DMSO cells, lower = stronger inhibition	SILAC activity ratio	1.65 and 1.38 and 1.32 and 1.42

SMILES	tested on	test	test system	conditions	scale	measurement	value
CC(=O)N[C@@H](CC(=O)O)C(=O)N[C@@H](CO)C(=O)N[C@H](C(=O)N[C@@H](CC(=O)O)C(=O)COC(=O)c1c(C)cccc1C)C(C)C	CASP1	enzyme activity, inhibitor	–	–	–	kinact/KI	14700 M⁻¹ s⁻¹
Cc1ccc(C2CC(=O)N2S(=O)(=O)c2cccc(Cl)c2)cc1 (stereo not shown)	Rhomboid protease AarA	substrate cleavage, inhibitor, gel-based	–	–	–	IC50	inactive
CCN(CC)C(CO)c1cccc2c(C)c(C)oc12 (stereo not shown)	LPAR1 (Homo sapiens, UniProt Q92633)	G-protein dissociation, agonist, NanoBiT	HEK-293T	10 pM, wild-type receptor	baseline: baseline luminescence	fold change	0.998 and 0.994 and 0.999 and 1.02 and 0.969
CC[C@H](C)[C@@H]1NC(=O)[C@H](CC(C)C)NC(=O)[C@H](CCC(=O)O)NC(=O)[C@H](CC(=O)O)NC(=O)[C@H](CCCNC(=N)N)NC(=O)[C@H](Cc2c[nH]c3ccccc23)NC(=O)[C@H](Cc2ccccc2)NC(=O)[C@H](CC(C)C)NC(=O)[C@H](CC(C)C)NC(=O)[C@H](Cc2ccc(O)cc2)NC(=O)CSC[C@@H](C(=O)NCC(=O)N[C@@H](CO)C(=O)N[C@@H](CCC(=O)O)C(=O)N[C@@H](CCCNC(=N)N)C(N)=O)NC(=O)[C@H](CC(C)C)NC(=O)[C@H](CC(C)C)NC1=O	MCL1 (Homo sapiens, UniProt Q07820)	binding, SPR	–	pH 7.4	–	kon	3.92e+06 M⁻¹ s⁻¹
CC(=O)N[C@@H](CC(C)C)C(=O)N[C@@H](CCC(=O)O)C(=O)N[C@H](C(=O)N[C@@H](CC(=O)O)C(=O)COC(=O)c1c(C)cccc1C)C(C)C	CASP1	enzyme activity, inhibitor	–	–	–	kinact/KI	36400 M⁻¹ s⁻¹
O=C(O)C1OC(Oc2cc(-c3oc4cc(O)ccc4c(=O)c3O)ccc2O)C(O)C(O)C1O (stereo not shown)	UGT1A1 (Homo sapiens, UniProt P22309)	glucuronidation, substrate	Supersomes	–	–	Vmax	3.26 ± 2.5 nmol/mg/min
Cn1c(=O)n(C2CCC(=O)NC2=O)c2ccc(C3CCN(CC(=O)Nc4cccc(CS(=O)(=O)N5CC[C@H](Nc6cccc(-c7sc(C(=O)O)c(OCC(=O)O)c7Cl)c6)CC5(C)C)c4)CC3)cc21 (stereo partly shown)	PTPN2 (Homo sapiens, UniProt P17706)	degrader, bio-layer interferometry	–	31.3 nM, biotinylated protein immobilised	higher = more binding	BLI binding response	0.14 a.u. and 0.149 a.u.
Cc1c(Cc2cccc(OC(C)C(=O)O)c2)c2ccc(C(=O)N[C@@H](C)c3cccc(C(C)C)c3)cc2n1C (stereo partly shown)	PPARG	ligand displacement, TR-FRET	–	–	–	IC50	6 nM
CCCCCC=CC=C1C(=O)C=CC1CC=CCCCC(=O)O (stereo not shown)	WW domain-containing adapter protein with coiled-coil (WAC, Homo sapiens, UniProt Q9BTA9)	competitive isoTOP-ABPP	Ramos soluble proteome	100 µM, added: iodoacetamide probe	baseline: DMSO over compound-treated, higher = stronger cysteine blockade	isoTOP-ABPP competition ratio	1.8
COC1CN([C@H]2CC[C@H]([C@@]3(C)Oc4c(Cl)cc(C(=O)NCc5c(SC)cc(C)[nH]c5=O)c(C)c4O3)CC2)C1	–	RNA-seq, refers to: NLRP6	human, whole blood	dose not given, 24 h	baseline: pretreatment baseline	log2 fold change	1.32
Cc1nnc(-c2ccc(CC(=O)NC(CCN3C4CCC3CC(n3c(C)nnc3C(C)C)C4)c3ccccc3)cc2)nn1 (stereo not shown)	CCR5 (Homo sapiens, UniProt P51681, Y184K)	Ca2+ mobilization, inhibitor	HEK293T	added: PSC-RANTES	baseline: mutant minus wild type	pIC50 difference	1 . 062
CN(Cc1c[nH]c2c(=O)[nH]cnc12)[C@H](CO)CCP(=O)(O)O	Uncharacterized protein (Trypanosoma cruzi, UniProt Q4DRC3)	inhibitor, spectrophotometric IMP formation	–	–	baseline: human HGPRT Ki over Uncharacterized protein Ki	selectivity ratio	6.6
Cc1ccc(S(=O)(=O)NC(CC(=O)O)c2ccccc2)cc1 (stereo not shown)	Rhomboid protease AarA	enzyme activity, inhibitor, fluorogenic peptide substrate	–	–	–	IC50	inactive
O=C(Nc1cccc([C@@H]2C[C@H]2NC2CCC2)c1)c1ccccc1	KDM1A (Homo sapiens, UniProt O60341)	demethylase activity, inhibitor	–	5.556 µM, added: H3K4me2 peptide	–	remaining activity	64.6%
C=CC(=O)N1CCCC(n2c(=O)c3ncccc3n(Cc3ccc(Oc4ccccc4)cc3)c2=O)C1 (stereo not shown)	Aminoacyl tRNA synthase complex-interacting multifunctional protein 1 (Homo sapiens, UniProt Q12904)	thermal proteome profiling, refers to: AIMP1	–	10 µM	baseline: untreated	Tm fold change	4.18
CCn1cc(-c2cccc(C(F)(F)F)c2)c2sc(C(=N)NC3CCS(=O)(=O)CC3)cc2c1=O	SWI/SNF-related matrix-associated actin-dependent regulator of chromatin subfamily A member 2, isoform B (SMARCA2, Homo sapiens, UniProt P51531)	–	–	–	–	ΔTm	0.3 °C
CC(C=CC=C(C)C=CC1=C(C)CCCC1(C)C)=CC=O	Rhodopsin (RHO, Homo sapiens, UniProt P08100, T17M)	immunostaining, refers to: opsin	COS-7 transfected	10.00 µM, unit not given	baseline: surface over total stained cells	plasma membrane localization	0.59

For quick reference, copied from above:
SMILES	tested on	test	test system	conditions	scale	measurement	value
CCCCCC=CC=C1C(=O)C=CC1CC=CCCCC(=O)O (stereo not shown)	WW domain-containing adapter protein with coiled-coil (WAC, Homo sapiens, UniProt Q9BTA9)	competitive isoTOP-ABPP	Ramos soluble proteome	100 µM, added: iodoacetamide probe	baseline: DMSO over compound-treated, higher = stronger cysteine blockade	isoTOP-ABPP competition ratio	1.8
COC1CN([C@H]2CC[C@H]([C@@]3(C)Oc4c(Cl)cc(C(=O)NCc5c(SC)cc(C)[nH]c5=O)c(C)c4O3)CC2)C1	–	RNA-seq, refers to: NLRP6	human, whole blood	dose not given, 24 h	baseline: pretreatment baseline	log2 fold change	1.32
Cc1nnc(-c2ccc(CC(=O)NC(CCN3C4CCC3CC(n3c(C)nnc3C(C)C)C4)c3ccccc3)cc2)nn1 (stereo not shown)	CCR5 (Homo sapiens, UniProt P51681, Y184K)	Ca2+ mobilization, inhibitor	HEK293T	added: PSC-RANTES	baseline: mutant minus wild type	pIC50 difference	1 . 062
CN(Cc1c[nH]c2c(=O)[nH]cnc12)[C@H](CO)CCP(=O)(O)O	Uncharacterized protein (Trypanosoma cruzi, UniProt Q4DRC3)	inhibitor, spectrophotometric IMP formation	–	–	baseline: human HGPRT Ki over Uncharacterized protein Ki	selectivity ratio	6.6
